{"data": "Assay results pooled from the literature", "note": "Numbered parts are unrelated; each lists some results of a single study. Several values in a cell are separate wells, animals, samples, runs or records."}
{"data": "Block 1", "cell line": "A-375", "concentration": "100 µM", "time": "18 h"}
{"Structure (SMILES)": "COC[C@@H](NC(C)=O)C(=O)NCc1ccccc1", "viability [%]": 86.5}
{"Structure (SMILES)": "CCC1(c2ccc(N)cc2)CCC(=O)NC1=O (centres unmarked)", "viability [%]": 81.5}
{"Structure (SMILES)": "C[C@H]1CC(=O)C[C@@H]2CC[C@H]3[C@@H]4CC[C@H](O)[C@@]4(C)CC[C@@H]3[C@]21C", "viability [%]": 39.5}
{"Structure (SMILES)": "CN1CCc2cc3c(cc2[C@H]1[C@@H]1OC(=O)c2c1ccc1c2OCO1)OCO3", "viability [%]": 106}
{"Structure (SMILES)": "COc1ccc(C(=O)N2CCCC2=O)cc1", "viability [%]": 94.2}
{"Structure (SMILES)": "CC(C)(C)c1cc(C(C)(C)C)c(NC(=O)c2c[nH]c3ccccc3c2=O)cc1O", "viability [%]": 8.6}
{"Structure (SMILES)": "CC(C)(C)NCC(O)c1ccccc1Cl (centres unmarked)", "viability [%]": 88.1}
{"Structure (SMILES)": "NC(=O)CN1CC(O)CC1=O (centres unmarked)", "viability [%]": 77.4}
{"Structure (SMILES)": "O=c1[nH]c2ccccc2n1C1CCN(CCCC(c2ccc(F)cc2)c2ccc(F)cc2)CC1", "viability [%]": 9.58}
{"Structure (SMILES)": "CC(C)C(Br)C(=O)NC(N)=O (centres unmarked)", "viability [%]": 103}
{"data": "Block 2", "cell line": "mouse MPNST tumor cells", "technique": "high-content nuclear imaging", "measured": "cell number", "concentration": "10 µM", "time": "12 h", "notes": "mean of 2 replicates", "reference": "plate mean", "direction": "higher = more cells"}
{"Structure (SMILES)": "CCc1c(C(=O)OC)ncc2[nH]c3cc(OC)c(OC)cc3c12", "nuclei count": "1.7 z-score"}
{"Structure (SMILES)": "CCN(C(C)=O)c1cccc(-c2ccnc3c(C#N)cnn23)c1", "nuclei count": "-0.325 z-score"}
{"Structure (SMILES)": "NC(=O)C[S+]([O-])C(c1ccccc1)c1ccccc1 (centres unmarked)", "nuclei count": "0.0547 z-score"}
{"Structure (SMILES)": "C=C1C[C@@H]2[C@H](CC[C@]3(C)C(=O)CC[C@@H]23)[C@@]2(C)C=CC(=O)C=C12", "nuclei count": "-1.51 z-score and -1.78 z-score"}
{"Structure (SMILES)": "O=C(NCCN1CCC2(CC1)C(=O)NCN2c1cccc(F)c1)c1ccc(F)c(F)c1", "nuclei count": "3.28 z-score"}
{"Structure (SMILES)": "Cc1cccc(NC(=O)N[C@@H]2N=C(c3ccccc3)c3ccccc3N(C)C2=O)c1", "nuclei count": "2.8 z-score"}
{"Structure (SMILES)": "CCN[C@@H](C)Cc1cccc(C(F)(F)F)c1", "nuclei count": "2.51 z-score"}
{"Structure (SMILES)": "Cc1cccc([C@H](C)c2c[nH]cn2)c1C", "nuclei count": "0.335 z-score and -0.241 z-score"}
{"data": "Block 3", "host": "mouse", "sample": "microsomes or S9", "concentration": "2 µM", "time": "0.5 h"}
{"SMILES": "O=C1N=C(O)N=C(O)/C1=C\\NNC(=O)c1ccccc1O", "remaining compound": "70.2%"}
{"SMILES": "COC(=O)[C@@]12Cc3ccccc3[C@@H](C1)N(C(C)(C)C)O2", "remaining compound": "1.21%"}
{"SMILES": "Cc1ccc2cc3c(nc2c1)OCCN(C1CCCC1)C3", "remaining compound": "0.155%"}
{"SMILES": "O=c1ccc2ccc3occc3c2o1", "remaining compound": "22.4%"}
{"data": "Other studies, line by line"}
{"Compound": "CN[C@@H]1C[C@H]2O[C@@](C)([C@@H]1OC)n1c3ccccc3c3c4c(c5c6ccccc6n2c5c31)C(=O)NC4", "cell line": "human CD34+ HSPC", "test": "EdU flow cytometry", "setting": "100 nM, 24 h", "measurement": "S-phase cells", "value": "34% and 26.5%"}
